Published values of several laboratories.
Each numbered part is a random draw from the data of one study; scales do not carry over between parts.

Block 1 — method: protein binding microarray; form: double-stranded DNA, one strand shown; medium: in vitro; tested at: not given; relative to: not given; reading: higher = stronger binding; quantity: E-score
Target: Histone acetyltransferase KAT6A, both winged helices, GST fusion (KAT6A, Homo sapiens, UniProt Q92794, residues 1-181)
Setting: 8-mer, flanks averaged, mean of 2 arrays, mostly near background
Construct (chain): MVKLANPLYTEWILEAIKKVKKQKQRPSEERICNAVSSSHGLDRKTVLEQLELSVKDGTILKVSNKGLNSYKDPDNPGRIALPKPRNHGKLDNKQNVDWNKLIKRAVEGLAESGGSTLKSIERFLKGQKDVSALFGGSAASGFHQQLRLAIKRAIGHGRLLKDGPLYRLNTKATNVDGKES
AGTTAGAT: -0.106
ATTACCGC: 0.291
GACCGATC: 0.0879
ATACATAT: 0.029
CTAAAACC: 0.0115
ACAGTACC: -0.0478
GATCATAA: -0.0356
TAATTTGA: -0.148
CCTCAGCA: -0.00488
CCGCACTC: 0.194
GCCAGCAC: -0.0606
GCGCGCGA: 0.392
TAGGGGGA: -0.238
GGAATGCC: 0.107
ATAGCCAC: -0.0858
CACCCAGC: -0.0663
CCGCGCCA: 0.295
ATGTGAGA: -0.113
TACCGAAA: -0.00992
ACAAGTCT: -0.127
CAATACCA: -0.0952
GGGGGTAA: -0.128
CACTGGTC: -0.031
GTACTAAA: -0.087
GAAAGCGC: 0.347

Block 2 — method: RNA Bind-n-Seq; form: RNA; medium: in vitro; tested at: 365 nM; relative to: no-protein control; reading: higher = stronger binding; quantity: RBNS enrichment (R)
Target: RNA binding protein fox-1 homolog 2, RRM domain, GST-SBP tag (RBFOX2, Homo sapiens, UniProt O43251-10, residues 100-194)
Setting: natural RNA segment, single round, ends assumed
Residues (chain): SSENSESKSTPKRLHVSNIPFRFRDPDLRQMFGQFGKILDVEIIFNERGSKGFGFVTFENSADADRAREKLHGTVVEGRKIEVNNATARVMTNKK
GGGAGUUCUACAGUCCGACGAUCCCCUGUUCAAAGGAGAAUGGUGGAUAAUACUGUCUGAGGAAAUCAGAACUUAUUUGAGAAGGAAGCUCUCGUUCCACAUUCCUAGCAACUAUAUUCUCAGGCACACAUAGUGGAAUUCUCGGGUGCCAA: 0.411
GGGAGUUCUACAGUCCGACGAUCACAAAGAAAGUCCCUUGCUUGUCUGCACCAGGGAAGCAAGAGCUCCCAGUGACACCACCCCCUGCCUCUGGUUACUAUAAGAUGAGCCUUUAAGAUUCUUUCUAGACUUAUGGAAUUCUCGGGUGCCAA: 0.363
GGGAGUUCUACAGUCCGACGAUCGAGAGAUGACGGGAGUGCGUUUCUCUGGGUUUGAUCUCCAUCCUGUUUUCUCCCAGACACACCACACCUACCUUGGGGGAAUGCCGUUGCCUGUUCCACCCCUUUGUUCAUGGAAUUCUCGGGUGCCAA: 6.55
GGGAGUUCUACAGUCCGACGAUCCUGUUUUGAGAAGCAGUGGUUGGGGCAUUUUUAAGAUGGCUGGCUACUCUUGUUUUCCCUCAUGAUAAUAAAUUUGUCAUAACUCAGUAACAUGAACUUGCCCCUAGAGGUGGAAUUCUCGGGUGCCAA: 0.441
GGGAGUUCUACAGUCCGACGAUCAAACAGUUAAAAUGAAUUUAAGAAUAAACAUAAGGCAUCGUUUUCAAUGAACAGUAAUAAUUUCCCAAUUUACAGAUUAGUGUCUACAAAGGUUUUCUUACAUCUUCUUCUGGAAUUCUCGGGUGCCAA: 0.683
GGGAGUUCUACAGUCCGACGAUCAGGAAUCAGUCCUGUAGCUUGGGUGCCUCCUUAUUUGUUAAUUAGUGGCUUUUCAUGUUCUCCUUUAGCCAAGGCUCCCUUUUUCCAAGUGAUGUCUUUCAGGGAAGCAGUGGAAUUCUCGGGUGCCAA: 0.451
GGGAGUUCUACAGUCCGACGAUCCAUUUUCAGGCCCUGUGGGGCUCCUGAGGUUCAGUAGCUGGGAUGUUCCCUCUUUCCUUCAAGUGCCUGUUGCAUAUUGAAAGGAAGGAGAAAUCCCAAAGCAGAUUCCUUGGAAUUCUCGGGUGCCAA: 0.2
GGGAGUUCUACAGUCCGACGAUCAGUGUUUUCUAUGAAGAUAAAUGGAUACUUCCUAAGUGGUGCCCUCAGAACCUGUGCACUCAUUUGCCCAGCAUUUCCUAGUGUCUAUUGGAUCAGAAACUGGUUUUACCUGGAAUUCUCGGGUGCCAA: 0.388
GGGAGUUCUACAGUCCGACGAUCACCAAAUCUCAGUUGUUUGCUUCUUGCCAUCACUGGUCCAGGUCUUCAGUUUCCGAAUCUCUUUCCCUUCCCCUGUGGUCUAUUGUCGCUAUGUGACUUGCGCUUAAUCCUGGAAUUCUCGGGUGCCAA: 0.457
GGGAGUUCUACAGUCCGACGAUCGACUGGCCCCAUUGCUUGAGCCCCUGUGCGACCCUUGACCUCCAGCCUUAGUUCUCCUGGAAGCUGCCAACUGCUUACGGGAGUGGGUAGAUUGGGCGUCUGAGACCCAGUGGAAUUCUCGGGUGCCAA: 0.599
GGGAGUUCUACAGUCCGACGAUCCAGUAAUUACAAGCUGACUUUUUACUGAACAUAGGAAUGUUAAAAACAAAUGUGUAGGUGGCUGGAGAAAUGGCUUAGUGGUUAAGAGCUCGGUCCUGAGUUCAAUUCCCUGGAAUUCUCGGGUGCCAA: 0.725
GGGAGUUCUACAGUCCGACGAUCUAAAUCAUGCUAGCAGCCUUAAGAGGUAAAGCCAUUGGAGAGAAGUGUCAAGCAUGGGAGCUAAAAUGAGUAAUCUGUGUUACCACACUCUUAGUACUAUCAUUUUUUUUUGGAAUUCUCGGGUGCCAA: 2.45

Block 3 — method: RNA Bind-n-Seq; form: RNA; medium: in vitro; tested at: 200 nM; setting: whole 134-nt RNA, ends assumed; with: 150 mM KCl; relative to: input library; reading: higher = stronger binding; quantity: log2 enrichment
Target: Fragile X messenger ribonucleoprotein 1, C-terminal low-complexity region (Fmr1, Mus musculus, UniProt P35922)
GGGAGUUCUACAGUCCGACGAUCUGGGAGGUGGAUUUUGUUUAUUUUUUUAGCUCAUUUCCAGGGGUGGGAAUUUUUUUUUAAUAUGUGUCAUGAAUAAAGUUAUUUUUGAAAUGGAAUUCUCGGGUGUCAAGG: 0.0611
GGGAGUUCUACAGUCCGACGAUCUCCUGUGCUACACAUCGUAUGUACCGAAUCGGGUUUUUGGGGUUUUUGGGGUUUUUGGGAAAGUAUUAUGUUACGCCGUUCGGAUCUGCAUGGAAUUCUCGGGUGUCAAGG: 0.496
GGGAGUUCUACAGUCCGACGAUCUCAAGUCCUGUGCUACACAUCGUAUGUACCGAAUCGGGUGGGAGGGAAAAAGGGAAAGUAUUAUGUUACGCCGUUCGGAUCUGCACUUCCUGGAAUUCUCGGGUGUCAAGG: 0.985
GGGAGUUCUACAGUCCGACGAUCCCUCAAGUCCUGUGCUACACAUCGUAUGUACCGAAUCGGGGUGGGUGGGUGGAAAGUAUUAUGUUACGCCGUUCGGAUCUGCACUUCCAGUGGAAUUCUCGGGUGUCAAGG: 1.47
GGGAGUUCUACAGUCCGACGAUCUCCUGUGCUACACAUCGUAUGUACCGAAUCGGGUUUUUUUGGGUUUUUGGGAAAAAGGGAAAGUAUUAUGUUACGCCGUUCGGAUCUGCAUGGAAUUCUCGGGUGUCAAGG: -0.171
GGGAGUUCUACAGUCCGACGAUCUAACUUUAGAGGAGGAUCUGAUGGAUAUGGCAGUGGACGUGGAUUUGGGGAUGGCUAUAAUGGGUAUGGAGGAGGACCUGGAGGUGGCGAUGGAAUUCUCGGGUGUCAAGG: 0.255
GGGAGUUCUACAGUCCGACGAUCGUCCUGUGCUACACAUCGUAUGUACCGAAUCGGGGAAAAAAAGGGGUGGGGAAAGGGGAAAGUAUUAUGUUACGCCGUUCGGAUCUGCACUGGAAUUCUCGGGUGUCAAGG: 0.287
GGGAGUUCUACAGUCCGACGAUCCAAGUCCUGUGCUACACAUCGUAUGUACCGAAUCGGGUUUGGUUUGGGGUUUGGGAAAGUAUUAUGUUACGCCGUUCGGAUCUGCACUUCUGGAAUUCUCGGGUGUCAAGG: 0.564
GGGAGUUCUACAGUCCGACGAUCCUCAAGUCCUGUGCUACACAUCGUAUGUACCGAAUCGGGGAGGGGAGGGGAGGAAAGUAUUAUGUUACGCCGUUCGGAUCUGCACUUCCAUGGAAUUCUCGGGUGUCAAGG: 0.744
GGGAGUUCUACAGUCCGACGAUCCAAGUCCUGUGCUACACAUCGUAUGUACCGAAUCGGGUUUGGGUUUGGGGUUUGGGAAAGUAUUAUGUUACGCCGUUCGGAUCUGCACUUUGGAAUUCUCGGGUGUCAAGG: 0.901
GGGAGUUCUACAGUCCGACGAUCCUGUGCUACACAUCGUAUGUACCGAAUCGGGGUUUUUGGGGUUUUUGGGGAAAAAAAGGGGAAAGUAUUAUGUUACGCCGUUCGGAUCUGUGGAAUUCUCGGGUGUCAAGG: -0.0883
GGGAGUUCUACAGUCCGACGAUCCCUCAAGUCCUGUGCUACACAUCGUAUGUACCGAAUCGGGAGGGAGGGGAGGAAAGUAUUAUGUUACGCCGUUCGGAUCUGCACUUCCAGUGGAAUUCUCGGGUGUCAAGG: 0.92
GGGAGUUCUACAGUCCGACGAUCCACAGACAACACGCACACACACAGACACAGAGGGAAGGGGUUGGGAUGGGGACAGGGUGCACAGCAGGGCGGGGUAGGACCCCAGCCCCUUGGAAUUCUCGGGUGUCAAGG: 1.29
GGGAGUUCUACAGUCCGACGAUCGAUCUCCGGGCUCAGUUGCAGAUUCUGGCCAACAUGGACAGCCAGCUAAAAGAGCUACAGAGUCAGCAUACCCAUUGUGCCCAGGACCUGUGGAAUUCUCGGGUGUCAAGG: -1.34

Block 4 — method: protein-binding microarray; form: hairpin DNA; medium: in vitro; tested at: not given; relative to: not given; reading: higher = stronger binding; quantity: median fluorescence
Target: Runt-related transcription factor 3, Runt domain (RUNX3, Homo sapiens, UniProt Q13761, residues 53-186)
Chain of UniProt Q13761 (53-186, looked up): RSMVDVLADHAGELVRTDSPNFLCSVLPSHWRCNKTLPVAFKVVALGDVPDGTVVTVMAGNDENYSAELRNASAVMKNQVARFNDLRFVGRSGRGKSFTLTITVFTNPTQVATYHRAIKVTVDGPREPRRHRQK
Setting: whole hairpin DNA, median over replicate spots
GAGGCCTGTCGCGGTTGGCCTCCTGGCCAACCGCGACAGGCCTCACACTC (5mC at 44): 6870 a.u.
GAGGCCTGTTGCGCGTGGCCTCCTGGCCACGCGCAACAGGCCTCACACTC (5mC at 14): 5150 a.u.
GAGGCCTGTTGAGGTTGGCCTCCTGGCCAACCTCAACAGGCCTCACACTC: 4730 a.u.
CTCAGTTCTGTGGGCTGGACTCCTGTCCAGCCCACAGAACTGAGACACTC (5mC at 32): 4280 a.u.
GAGGCCCGTTGTGGTTGGCCTCCTGGCCAACCACAACGGGCCTCACACTC (5mC at 7 37): 5930 a.u.
GAGGCCTGTTGCGGTTCGCCTCCTGGCGAACCGCAACAGGCCTCACACTC (5mC at 17): 6370 a.u.
GAGGCCTGTTGTAGTTGGCCTCCTGGCCAACTACAACAGGCCTCACACTC: 3730 a.u.
GAGGCCTGTTCTGGTTGGCCTCCTGGCCAACCAGAACAGGCCTCACACTC (5mC at 11): 4610 a.u.
CTCAGCGCTGTGGGCTGGACTCCTGTCCAGCCCACAGCGCTGAGACACTC (5mC at 6 38): 4420 a.u.
GAGGCCCAACCGCAACCGCCTCCTGGCGGTTGCGGTTGGGCCTCACACTC: 9750 a.u.
CTCAGTTCTCGGGGCTGGACTCCTGTCCAGCCCCGAGAACTGAGACACTC (5mC at 10 34): 4150 a.u.
GAGGCCCACGCGCAACAGCCTCCTGGCTGTTGCGCGTGGGCCTCACACTC (5mC at 9 35): 5240 a.u.
GAGGCCTCTTGCGGTTGGCCTCCTGGCCAACCGCAAGAGGCCTCACACTC: 8780 a.u.
CTCAGTTCTGGGGGCTGGACTCCTGTCCAGCCCCCAGAACTGAGACACTC: 4060 a.u.
GAGGCCCGTTGTGGTTGGCCTCCTGGCCAACCACAACGGGCCTCACACTC: 5800 a.u.
GAGGCCTGTCGCGCTTGGCCTCCTGGCCAAGCGCGACAGGCCTCACACTC (5mC at 14): 5020 a.u.
GAGGCCCAACCGCACCAGCCTCCTGGCTGGTGCGGTTGGGCCTCACACTC: 7030 a.u.
GAGGCCTGTTCCGGTTGGCCTCCTGGCCAACCGGAACAGGCCTCACACTC: 4770 a.u.

Some of these lines once more (block 1):
GCCAGCAC: -0.0606
TACCGAAA: -0.00992
ATACATAT: 0.029
TAATTTGA: -0.148
GAAAGCGC: 0.347
CCGCACTC: 0.194
ATAGCCAC: -0.0858
